Published values from different studies.
Each line is one published result; not all experiments were run side by side.

Structure (SMILES) | test system | setting | measurement | result
CCCCCCCC(=O)NC[C@H](NC(=O)[C@H](CO)NC(=O)CN)C(=O)N[C@@H](Cc1ccccc1)C(=O)N[C@@H](CC(C)C)C(=O)N[C@@H](CO)C(=O)N1CCC[C@H]1C(=O)N[C@@H](CCC(=O)O)C(=O)N[C@@H](Cc1c[nH]cn1)C(=O)N[C@@H](CCC(N)=O)C(=O)N[C@@H](CCCNC(=N)N)C(=O)N[C@H](C(=O)N[C@@H](CCC(N)=O)C(=O)N[C@H](C(=O)N[C@@H](CCCNC(=N)N)C(=O)N1CCC[C@H]1C(=O)N1CCC[C@H]1C(=O)N[C@@H](Cc1c[nH]cn1)C(=O)N[C@@H](CCCCN)C(=O)N[C@@H](C)C(=O)N1CCC[C@H]1C(=O)N[C@@H](Cc1c[nH]cn1)C(=O)N[C@H](C(=O)N[C@H](C(=O)O)C(C)C)C(C)C)C(C)C)C(C)C | mouse, plasma | intraperitoneal, 1.2 mg/kg | AUC(0-inf) | 0.0104 µg·h/mL
O=C(CN1CCN(c2cc3c(cc2F)c(=O)c(C(=O)O)cn3C2CC2)CC1)Nc1ccc(Cl)cc1 | mouse, plasma | intravenous, 3.75 mg/kg | AUC | 100 µg·h/mL
CC(C)[C@H]1NC(=O)C[C@H]2/C=C/CCSSC[C@@H](NC1=O)C(=O)N[C@H](Cc1cccc3ccccc13)C(=O)NCC(=O)O2 | nude mouse, blood | oral, 12 mg/kg | AUC(0-inf) | 0.000557 µg·h/mL
C[C@H](CCC(=O)N[C@@H](CCCCNC(=O)C(F)(F)F)C(=O)O)[C@H]1CC[C@H]2[C@@H]3[C@H](O)C[C@@H]4C[C@H](O)CC[C@]4(C)[C@H]3C[C@H](O)[C@]12C | mouse, plasma | oral, 50 mg/kg | AUC(0-t) | 54 µM·h
C[C@@](O)(C(F)F)[C@H](NC(=O)c1ccc(C#CC#CC2CC2)cc1)C(=O)NO | mouse, plasma | intravenous, 40 mg/kg | AUC(0-inf) | 24.8 µg·h/mL
CC(C)(CCCC/C=C/CCCCCC(C)(C)C(=O)O)C(=O)O | CD-1 mouse, plasma | oral, 10 mg/kg | AUC(0-t) | 128 µg·h/mL
O=c1cc(-c2ccccc2)oc2c(Br)c(O)c(O)c(O)c12 | C57BL/6 mouse, plasma | oral, 150 mg/kg, single dose | AUC(0-inf) | 8.26 µg·h/mL
CS(C)(=O)=Nc1ccc(-c2ccc(-c3nc4cc(O[C@@H]5CO[C@H]6[C@@H]5OC[C@H]6O)[nH]c4cc3F)cc2)cc1 | female C57BL/6 mouse, plasma | oral, 10 mg/kg | AUC | 8.06 µg·h/mL
COc1nc(CC=C(C)CC=CC(C)=CC(C)C(OC2OC(CO)C(O)C(O)C2O)C(C)=CCO)c(C)c(O)c1OC (stereo not drawn) | male C57BL/6 mouse, plasma | intravenous, 2 mg/kg | AUC(0-t) | 0.363 µg·h/mL

A few entries again:
Structure (SMILES) | test system | setting | measurement | result
CC(C)(CCCC/C=C/CCCCCC(C)(C)C(=O)O)C(=O)O | CD-1 mouse, plasma | oral, 10 mg/kg | AUC(0-t) | 128 µg·h/mL
